Experimental data pooled from the literature.
Each line is one published result; not all experiments were run side by side. ± marks the error that the study gave.

With N=C(N)NCCC[C@H](NC(=O)[C@@H]1CSSC[C@H](NC(=O)[C@H](Cc2ccc3ccccc3c2)NC(=O)[C@H](CCCNC(=N)N)NC(=O)[C@H](CCCNC(=N)N)NC(=O)CN2CCN(CC(=O)O)CCN(CC(=O)O)CCN(CC(=O)O)CC2)C(=O)N[C@@H](Cc2ccc(O)cc2)C(=O)N[C@@H](CCCNC(N)=O)C(=O)N[C@@H](CCCCN)C(=O)N[C@H](CCCCN)C(=O)N2CCC[C@H]2C(=O)N[C@@H](Cc2ccc(O)cc2)C(=O)N[C@@H](CCCNC(=N)N)C(=O)N[C@@H](CCCNC(N)=O)C(=O)N1)C(N)=O [copper-64 labelled] the tissue uptake was 13.6 ± 1.24 %ID/g (PET; tumour-bearing mice, liver; 100 µCi, 24 h).
CC(F)C(=O)NC[C@@H]1O[C@H](C(=O)NCCCC[C@@H]2NC(=O)[C@@H](Cc3ccc(O)cc3)NC(=O)[C@H](CC(=O)O)NC(=O)CNC(=O)[C@H](CCCNC(=N)N)NC2=O)[C@H](O)[C@H](O)[C@H]1O (some centres unmarked) [fluorine-18 labelled] gave a tissue uptake of 0.21 ± 0.03 %ID/g (small-animal PET; female athymic nude mice, U-87 MG xenograft, liver; intravenous, 3.7 MBq, 60 min).
With N=C(N)NCCC[C@@H]1NC(=O)[C@H](CCCCNC(=O)CON=C[C@H](F)[C@@H](O)[C@H](O)[C@H](O)CO)NC(=O)[C@@H](Cc2ccc(O)cc2)NC(=O)[C@H](CC(=O)O)NC(=O)CNC1=O [fluorine-18 labelled] the tissue uptake was 0.13 ± 0.21 %ID/g (nude mice U-87 MG tumour, bone; intravenous, 2 h).
The tissue uptake of CCCC[C@H](NC(=O)CNC(=O)CNC(=O)CN1CCN(CC(=O)O)CCN(CC(=O)O)CC1)C(=O)N[C@H]1CC(=O)NCCCC[C@@H](C(N)=O)NC(=O)[C@H](Cc2c[nH]c3ccccc23)NC(=O)[C@H](CCCNC(=N)N)NC(=O)[C@@H](Cc2ccccc2)NC(=O)[C@H](Cc2c[nH]cn2)NC1=O [gallium-67 labelled] is reported as 7.95 ± 2.58 %ID/g (female C57 mice, B16/F1 melanoma, tumor; intravenous, 0.037 MBq, 24 h).
The tissue uptake of O=C([O-])c1cccc(CN(CCN(Cc2cn(Cc3ccccc3)nn2)Cc2cccc(C(=O)[O-])n2)Cc2cn(Cc3ccccc3)nn2)n1.[64Cu+2] is reported as 1.72 %ID/g (healthy athymic nude mice, blood; intravenous, 15 min).
CCCC[C@H](NC(=O)CNC(=O)CNC(=O)CN1CCN(CC(=O)O)CCN(CC(=O)O)CC1)C(=O)N[C@H]1CC(=O)NCCCC[C@@H](C(N)=O)NC(=O)[C@H](Cc2c[nH]c3ccccc23)NC(=O)[C@H](CCCNC(=N)N)NC(=O)[C@@H](Cc2ccccc2)NC(=O)[C@H](Cc2c[nH]cn2)NC1=O [copper-64 labelled] has a tissue uptake of under 0.8 %ID/g (female C57 mice, B16/F1 melanoma, liver; intravenous, 0.037 MBq, 2 h).
CCCC[C@@H]1NC(=O)[C@@H](NC(=O)[C@H](CCC(=O)O)NC(=O)CNC(=O)CN2CCN(CC(=O)O)CCN(CC(=O)O)CCN(CC(=O)O)CC2)CCCCNC(=O)C[C@@H](C(N)=O)NC(=O)[C@H](C(C)C)NC(=O)[C@@H]2CCCN2C(=O)[C@H](CCCNC(=N)N)NC(=O)CNC(=O)[C@H](Cc2c[nH]c3ccccc23)NC(=O)[C@H](CCCNC(=N)N)NC(=O)[C@@H](Cc2ccccc2)NC(=O)[C@H](Cc2c[nH]cn2)NC(=O)[C@H](CCC(=O)O)NC1=O [gallium-67 labelled] has a tissue uptake of 0.19 ± 0.03 %ID/g (C57 mice, B16/F10 lung metastases, stomach; intravenous, 0.037 MBq/mouse, 2 h).
O=C([O-])CN1CCN(CC(=O)[O-])CCN(CC(=O)NC[C@H]2CC[C@H](C(=O)N[C@H](Cc3cnc4ccccc4c3)C(=O)NCCCC[C@H](NC(=O)N[C@@H](CCC(=O)O)C(=O)O)C(=O)O)CC2)CCN(CC(=O)[O-])CC1.[64Cu+2] has a tissue uptake of 17.8 ± 3.6 %ID/g (ex vivo gamma counting; 22Rv1 tumour-bearing mice, tumor; intravenous, 0.74 MBq, 6 h).
CC(C)CC(CC(C)C)NC(=O)[C@H](Cc1cnc[nH]1)NC(=O)CNC(=O)[C@@H](NC(=O)[C@H](C)NC(=O)[C@H](Cc1c[nH]c2ccccc12)NC(=O)[C@H](CCC(N)=O)NC(=O)[C@@H](Cc1ccccc1)NC(=O)COCC(=O)Nc1ccc(CNC(=O)CN2CCN(CC(=O)O)CCN(CC(=O)O)CCN(CC(=O)O)CC2)cc1)C(C)C [gallium-68 labelled] has a tissue uptake of 12.1 ± 3.72 %ID/g (male NRG mice, PC-3 xenograft, tumour; intravenous, 120 min).
The tissue uptake of N=C(N)NCCC[C@@H]1NC(=O)[C@H](CCCCNC(=O)CC[C@H](NC(=O)[C@H]2O[C@@H](CNC(=O)c3ccc(F)cc3)[C@H](O)[C@@H](O)[C@H]2O)C(=O)NCCCC[C@@H]2NC(=O)[C@@H](Cc3ccc(O)cc3)NC(=O)[C@H](CC(=O)O)NC(=O)CNC(=O)[C@H](CCCNC(=N)N)NC2=O)NC(=O)[C@@H](Cc2ccc(O)cc2)NC(=O)[C@H](CC(=O)O)NC(=O)CNC1=O [fluorine-18 labelled] is reported as 0.18 ± 0.06 %ID/g (small-animal PET; female athymic nude mice, U-87 MG xenograft, muscle; intravenous, 3.7 MBq, 120 min).
With CN1C(=O)[C@@H](Cc2ccc(O)c(I)c2)NC(=O)CNC(=O)[C@H](Cc2ccc3ccccc3c2)NC(=O)[C@H](CCCNC(=N)N)NC(=O)[C@H]1CCCNC(=O)c1ccc(CNC(=O)CN2CCN(CC(=O)O)CCN(CC(=O)O)CCN(CC(=O)O)CC2)cc1 [lutetium-177 labelled] the tissue uptake was 10.3 ± 0.8 %ID/g (item: 177Lu radioactivity; female CB-17 SCID mice, Daudi xenograft, liver; intravenous, 0.16 nmol per mouse, 1 h).
With CC(F)C(=O)NC[C@@H]1O[C@H](C(=O)N[C@@H](CCC(=O)NCCCC[C@@H]2NC(=O)[C@@H](Cc3ccc(O)cc3)NC(=O)[C@H](CC(=O)O)NC(=O)CNC(=O)[C@H](CCCNC(=N)N)NC2=O)C(=O)NCCCC[C@@H]2NC(=O)[C@@H](Cc3ccc(O)cc3)NC(=O)[C@H](CC(=O)O)NC(=O)CNC(=O)[C@H](CCCNC(=N)N)NC2=O)[C@H](O)[C@H](O)[C@H]1O (some centres unmarked) [fluorine-18 labelled] the tissue uptake was 1.68 ± 0.32 %ID/g (small-animal PET; female athymic nude mice, U-87 MG xenograft, kidney; intravenous, 3.7 MBq, 120 min).
With CCCC[C@H](NC(=O)CNC(=O)CNC(=O)CN1CCN(CC(=O)O)CCN(CC(=O)O)CCN(CC(=O)O)CC1)C(=O)N[C@H]1CC(=O)NCCCC[C@@H](C(N)=O)NC(=O)[C@H](Cc2c[nH]c3ccccc23)NC(=O)[C@H](CCCNC(=N)N)NC(=O)[C@@H](Cc2ccccc2)NC(=O)[C@H](Cc2c[nH]cn2)NC1=O [lead-203 labelled] the tissue uptake was 1.86 ± 1.02 %ID (normal C57 mice, intestine; intravenous, 0.056 MBq, 24 h).
The tissue uptake of NC12CNCCNCC(NCc3ccc(CNC(=O)CCCC(=O)NCc4ccc(-c5nncnn5)cc4)cc3)(CNCCNC1)CNCCNC2.[64Cu+2] is reported as 0.84 ± 0.1 %ID/g (athymic nude mice SW1222 xenograft, heart; 12 h post injection, 24 h accumulation interval, together with: huA33-TCO pretargeting).
With CC(F)C(=O)NCCOCCOCCOCC(=O)N[C@@H](CCC(=O)NCCCC[C@@H]1NC(=O)[C@@H](Cc2ccc(O)cc2)NC(=O)[C@H](CC(=O)O)NC(=O)CNC(=O)[C@H](CCCNC(=N)N)NC1=O)C(=O)NCCCC[C@@H]1NC(=O)[C@@H](Cc2ccc(O)cc2)NC(=O)[C@H](CC(=O)O)NC(=O)CNC(=O)[C@H](CCCNC(=N)N)NC1=O (some centres unmarked) [fluorine-18 labelled] the tissue uptake was 2.88 ± 0.42 %ID/g (small-animal PET; female athymic nude mice, U-87 MG xenograft, kidney; intravenous, 3.7 MBq, 60 min).
For N=C(N)NCCC[C@H](NC(=O)[C@@H]1CSSC[C@H](NC(=O)[C@H](Cc2ccc3ccccc3c2)NC(=O)[C@H](CCCNC(=N)N)NC(=O)[C@H](CCCNC(=N)N)NC(=S)Nc2ccc(C[C@H]3CN(CC(=O)O)CCN(CC(=O)O)CCN3CC(=O)O)cc2)C(=O)N[C@@H](Cc2ccc(O)cc2)C(=O)N[C@@H](CCCNC(N)=O)C(=O)N[C@@H](CCCCN)C(=O)N[C@H](CCCCN)C(=O)N2CCC[C@H]2C(=O)N[C@@H](Cc2ccc(O)cc2)C(=O)N[C@@H](CCCNC(=N)N)C(=O)N[C@@H](CCCNC(N)=O)C(=O)N1)C(N)=O [copper-64 labelled], the tissue uptake was 4.59 ± 0.9 %ID/g (female athymic nude mice, spleen; intravenous, 50 µCi, 4 h).
O=C([O-])CN1CCN(CC(=O)[O-])CCN(CC(=O)[O-])CCN(CC(=O)[O-])CC1.[64Cu+2] has a tissue uptake of 0.45 %ID/g (nude athymic mice, healthy, femur; intravenous, 1 h, 64Cu label).
O=C(NCC1OC2CCC=CCCC2O1)c1ccc([18F])nc1 (centres unmarked) has a tissue uptake of 3.8 ± 1.7 %ID/g (female BALB/c nude mice, brain; intravenous, 10 min).
CC(F)C(=O)NC[C@@H]1O[C@H](C(=O)NCCCC[C@@H]2NC(=O)[C@@H](Cc3ccccc3)NC(=O)[C@H](CC(=O)O)NC(=O)CNC(=O)[C@H](CCCNC(=N)N)NC2=O)[C@H](O)[C@H](O)[C@H]1O (some centres unmarked) [fluorine-18 labelled] has a tissue uptake of 0.1 ± 0.01 %ID/g (small-animal PET; female athymic nude mice, U-87 MG xenograft, liver; intravenous, 3.7 MBq, 120 min).
CCCC[C@H](NC(=O)CNC(=O)CNC(=O)CN1CCN(CC(=O)O)CCN(CC(=O)O)CCN(CC(=O)O)CC1)C(=O)N[C@H]1CC(=O)NCCCC[C@@H](C(N)=O)NC(=O)[C@H](Cc2c[nH]c3ccccc23)NC(=O)[C@H](CCCNC(=N)N)NC(=O)[C@@H](Cc2ccccc2)NC(=O)[C@H](Cc2c[nH]cn2)NC1=O [gallium-67 labelled] gave a tissue uptake of 0.64 ± 0.06 %ID/g (female C57 mice, B16/F1 melanoma, spleen; intravenous, 0.037 MBq, 4 h).
